Measurements collected from several papers.
Each line is one published result; not all experiments were run side by side. Numbers after ± are the reported error.

SMILES	target or system	assay	system	setting	how to read	quantity	result
COc1c(C)c2c(c(O[C@@H]3O[C@H](C(=O)O)[C@@H](O)[C@H](O)[C@H]3O)c1C/C=C(\C)CCC(=O)O)C(=O)OC2			healthy subjects, plasma	oral, 1 g mycophenolate mofetil, with: isavuconazole		Cmax, mean	31.7 ng/mL
C=CCN1CC(=O)N2[C@@H](Cc3ccc(O)cc3F)C(=O)N(Cc3cccc(N4CC(N5CCN(CC)CC5)C4)n3)C[C@@H]2N1C(=O)NCc1ccccc1			advanced solid tumour patients	oral, 30 mg twice daily, grade ≥3, dose-escalation		treatment-related AST increased	0%
C[C@H]1CN(C(=O)CC#N)[C@]12CCN(c1ncnc3[nH]ccc13)C2			healthy Japanese males	oral, 100 mg single dose, mean		AUC(0-last)	3240 ng·h/mL
Cc1cc(-c2nccc3c2ccn3CC(=O)Nc2ccc(-c3cnccn3)cn2)ccn1			human	SAD part, single 7 mg dose		subjects with Dizziness TEAEs	0%
O=C(O)C=Cc1ccc(OS(=O)(=O)O)c(O)c1			human plasma	median		plasma concentration	114 nM
OC[C@H]1O[C@@H](c2ccc(F)c(Cc3cc4ccccc4s3)c2)[C@H](O)[C@@H](O)[C@@H]1O			Japanese type 1 diabetes patients	oral, 50 mg/day	reference: patients	hypoglycaemia adverse events	7%
CCc1nc(C(N)=O)c(Nc2ccc(N3CCC(N4CCN(C)CC4)CC3)c(OC)c2)nc1NC1CCOCC1			Japanese patients, plasma	oral, 120 mg, cycle 1 day 28, multiple doses, mean	reference: single dose	accumulation ratio (AUC)	7.97
CC(=O)O[C@H]1C[C@@]2(C)[C@@H](C[C@@H](O)[C@H]3[C@@]4(C)CC[C@@H](O)[C@@H](C)[C@@H]4CC[C@@]32C)/C1=C(\CCC=C(C)C)C(=O)O		starch gel membrane permeability	Gram-negative envelope surrogate	200 µM, 90 min, pH 7.4		amount permeated	0.9 nmol
CC(=O)N(C)[C@H]1CCN(C(=O)c2cnc3c(c2)C[C@](C)(c2ccc(F)cc2)N3)C1		refers to: liver function test increased	human	oral, 30 mg once daily		adverse event duration	22 days
NC1(C(=O)N[C@@H](CCO)c2ccc(Cl)cc2)CCN(c2nc[nH]c3nccc2-3)CC1			metastatic CRPC patients	320 mg b.i.d., any grade, treatment-related, with: enzalutamide 160 mg daily		incidence of Amnesia	0%
O=C(CCc1ccc(O)cc1)c1c(O)cc(O)cc1O			human plasma	median, both sexes		plasma concentration	6040 nM
Cn1cc(Nc2nccc(-c3ccc4c(c3)CN(C3COC3)CC[C@H]4NC(=O)c3cn(C(C)(C)C)nn3)n2)cn1			human, whole blood	150 mg twice daily, day 7	reference: pre-dose baseline	NK cell count change	-15.3%
CCN(CC)CCCC(C)Nc1ccnc2cc(Cl)ccc12 (centres unmarked)	COS-7	WST-8		50 µM, 24 h, 0.1% DMSO, unit not given	reference: vehicle control	metabolic activity	0.9 ± 0.13
CCCCC1=NC2(CCCC2)C(=O)N1Cc1ccc(-c2ccccc2S(=O)(=O)Nc2noc(C)c2C)c(COCC)c1			healthy adult volunteers, plasma	oral, 50 mg, single dose, fed, crushed tablet		AUC(0-inf)	10500 ng·h/mL
COc1cc2c(c(OC)c1OC)C(=O)c1c(cc(C)c(O)c1OC)C2=O	HepaRG co-cultured with HK-2	MTT		33.33 µM, 48 h	reference: untreated control	cell viability	81.3 ± 9.1%
C[C@@H](N)c1cc(Cl)ccc1Cn1c(=S)[nH]c(=O)c2[nH]ccc21			human severe renal impairment	oral, 2.5 mg single dose		drug-related adverse events	0%
Cc1ccc([C@@H]2O[C@H](CO)[C@@H](O)[C@H](O)[C@H]2O)cc1Cc1ccc(-c2ccc(F)cc2)s1			Japanese type 2 diabetes patients	25 mg, day 1, 24 h urine collection	reference: baseline	urinary calcium excretion change	-19.9 mg
Cc1cc(C)c(CNC(=O)c2cc(Cl)c3c(c2C)O[C@@](C)([C@H]2CC[C@H](N(C)C)CC2)O3)c(=O)[nH]1			human relapsed/refractory NHL	oral, 200 mg once daily, onset day 1 to 14		back pain grade ≥3	0%
Clc1ccc(C(c2c[nH]c3ccccc23)c2c[nH]c3ccccc23)cc1	COS-7			30 µM, 24 h, 0.1% DMSO, unit not given	reference: vehicle control	confluence	0.28 ± 0.03
Cc1cc(O)c2c(c1)C(=O)c1cc(O)cc(O)c1C2=O	HepaRG co-cultured with HK-2	MTT		266.67 µM, 24 h	reference: untreated control	cell viability	34.3 ± 3.68%
CC(C)[C@H](N)C(=O)NCCCS(=O)(=O)O			human both sexes, plasma	oral, 256.5 mg once daily, day 1, fasted capsule		AUC(0-24)	9840 ng·h/mL
CC(C)(C(=O)N1CCOc2c(C#N)cncc2C1)C(F)F		refers to: abdominal discomfort	human	oral, 20 mg twice daily, 14 days, multiple ascending dose		subjects with adverse event	0%
COc1cc(/C=C/C(=O)OC2C(O)CC(O)(C(=O)O)CC2O)ccc1O (centres unmarked)			human plasma	mean		plasma concentration	22.2 nM

For quick reference, copied from above:
SMILES	target or system	assay	system	setting	how to read	quantity	result
CC(=O)O[C@H]1C[C@@]2(C)[C@@H](C[C@@H](O)[C@H]3[C@@]4(C)CC[C@@H](O)[C@@H](C)[C@@H]4CC[C@@]32C)/C1=C(\CCC=C(C)C)C(=O)O		starch gel membrane permeability	Gram-negative envelope surrogate	200 µM, 90 min, pH 7.4		amount permeated	0.9 nmol
CCc1nc(C(N)=O)c(Nc2ccc(N3CCC(N4CCN(C)CC4)CC3)c(OC)c2)nc1NC1CCOCC1			Japanese patients, plasma	oral, 120 mg, cycle 1 day 28, multiple doses, mean	reference: single dose	accumulation ratio (AUC)	7.97
CC(C)[C@H](N)C(=O)NCCCS(=O)(=O)O			human both sexes, plasma	oral, 256.5 mg once daily, day 1, fasted capsule		AUC(0-24)	9840 ng·h/mL
OC[C@H]1O[C@@H](c2ccc(F)c(Cc3cc4ccccc4s3)c2)[C@H](O)[C@@H](O)[C@@H]1O			Japanese type 1 diabetes patients	oral, 50 mg/day	reference: patients	hypoglycaemia adverse events	7%
